Values quoted from earlier work that unrelated publications cite.
Lines come from different studies, so protocols differ. ± marks the error that the study gave. Ends that are not written are not given here.
UniProt Q9R0C9, sequence (whole entry, looked up): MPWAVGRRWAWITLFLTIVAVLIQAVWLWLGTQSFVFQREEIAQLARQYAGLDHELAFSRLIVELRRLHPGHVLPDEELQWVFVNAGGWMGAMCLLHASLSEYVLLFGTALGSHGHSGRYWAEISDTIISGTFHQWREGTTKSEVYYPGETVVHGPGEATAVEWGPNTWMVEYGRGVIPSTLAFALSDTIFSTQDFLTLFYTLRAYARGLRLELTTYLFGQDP
UniProt Q9JI35, sequence (whole entry, looked up): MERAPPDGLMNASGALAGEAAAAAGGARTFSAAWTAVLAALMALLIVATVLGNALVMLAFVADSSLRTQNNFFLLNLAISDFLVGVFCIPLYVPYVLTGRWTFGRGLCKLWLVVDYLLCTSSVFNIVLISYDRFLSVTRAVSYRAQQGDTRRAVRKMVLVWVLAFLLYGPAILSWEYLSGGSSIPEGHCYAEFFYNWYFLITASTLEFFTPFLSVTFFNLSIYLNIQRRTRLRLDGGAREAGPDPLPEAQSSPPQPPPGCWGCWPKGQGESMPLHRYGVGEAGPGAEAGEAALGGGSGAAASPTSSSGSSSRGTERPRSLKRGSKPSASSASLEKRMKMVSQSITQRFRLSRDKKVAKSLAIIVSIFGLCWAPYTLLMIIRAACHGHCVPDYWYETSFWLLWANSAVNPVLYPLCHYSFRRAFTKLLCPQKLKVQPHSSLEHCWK

Substance	tested on	assay	test system	setting	measurement	result
C=C1[C@H]2[C@@H]([C@@H](C(C)C)C[C@@H]1O)[C@H]1O[C@@H]2C[C@](C)(O)[C@@H](OC(=O)Cc2ccccc2)CC[C@@]1(C)OC(=O)CCC	neutrophils	superoxide production	–	with: fMLF	IC50	3.1 µM
Nc1nc(N)nc(Nc2ccc([As]3SCC(CO)S3)cc2)n1 (centres unmarked)	L6 rat myoblasts	cell growth	–	–	IC50	7.78 µM
CN(Cc1cnc2nc(N)nc(N)c2n1)c1ccc(C(=O)N[C@@H](CCC(=O)O)C(=O)O)cc1	KB	cell growth	–	96 h, folic acid-free medium	IC50	0.006 µM
INLKALAALAKKIL-OH (mastoparan free acid)	MDA-MB-231	cell growth	peptide	–	IC50	251 µM
C[C@H]1O[C@@H](O[C@H]2[C@@H](O)C[C@H](O[C@H]3[C@@H](O)C[C@H](O[C@H]4CC[C@@]5(C)[C@H](CC[C@@H]6[C@@H]5C[C@@H](O)[C@]5(C)[C@@H](C7=CC(=O)OC7)CC[C@]65O)C4)O[C@@H]3C)O[C@@H]2C)C[C@H](O)[C@@H]1O	HT-29	cell viability	–	72 h	IC50	0.28 ± 0.03 µM
N.N.[Cl][Pt][Cl]	colorectal cancer cell lines	cell growth	–	mean of 27 lines	IC50	13.2 µM
CC(/C=C/CCCO)=C\[C@@H]1Cc2nc(cs2)[C@@H](C)C[C@@H](NC(=O)OC(C)(C)C)CC(=O)O[C@@H](C)C/C(C)=C/C=C\C(=O)O1	Jurkat T cells	IL-2 reporter gene	–	–	IC50	> 1 µM
N.N.[Cl][Pt][Cl]	esophageal cancer cell lines, high GLUT1 expression	–	–	17 cell lines, mean value	IC50	28.3 ± 8.2 µM
CC[C@H](C)[C@H](NC(=O)[C@@H](N)Cc1ccccc1)C(=O)NCC(=O)N[C@H](C(=O)N[C@@H](CC(C)C)C(=O)N[C@H](C(=O)N1CCC[C@H]1C(=O)N[C@@H](CC(C)C)C(=O)N[C@@H](C)C(=O)N[C@@H](CC(C)C)C(=O)NCC(=O)N[C@@H](C)C(=O)N[C@@H](CC(C)C)C(=O)N[C@H](C(=O)N[C@@H](CCCCN)C(=O)N[C@@H](CC(C)C)C(=O)N[C@@H](Cc1ccccc1)C(=O)N[C@@H](CCCCN)C(N)=O)[C@@H](C)O)[C@@H](C)CC)[C@@H](C)O	HeLa	–	–	literature value	IC50	~10 µM
COc1ccc(C[C@H]2COC(=O)[C@@H]2Cc2ccc(O)c(O)c2)cc1OC	human neutrophils	calcium flux, inhibitor	–	with: fMLF	IC50	< 10 µM
O=[P@]1(S)OC[C@H]2O[C@@H](n3cnc4cc(Cl)c(Cl)cc43)[C@H](O)[C@@H]2O1	PDE6	cyclic nucleotide hydrolysis, substrate or inhibitor, isothermal titration calorimetry	–	–	Km or Ki	24.5 µM
C[C@@]12OC(=O)[C@]1([C@@H](O)[C@@H]1C=CCCC1)NC(=O)[C@@H]2CCCl	MM1.S	cell growth	–	–	IC50	0.007 µM
C/C1=C\CC[C@@]2(C)O[C@@H]2[C@H]2OC(=O)[C@@H](CN(C)C)[C@@H]2CC1	U-87 MG	cell growth, inhibitor	–	–	IC50	8.8 ± 1.9 µM
COC(=O)C(C)CCC[C@]1(C)CC[C@]2(O1)C(=O)C(C)=C(C)[C@@]2(O)C(C)=O (some centres unmarked)	neutrophils	superoxide production	–	with: fMLF	IC50	4.1 µM
C[C@]12CCC(=O)CC1=CC[C@@H]1[C@@H]2CC[C@]2(C)C(=O)CC[C@@H]12	ketosteroid isomerase Y30F/Y55F	substrate	–	pH 7.0, 3.3 % methanol	Km	50.2 ± 5.5 µM
CC[C@H](C)[C@@H]1NC(=O)[C@H](Cc2c[nH]c3ccccc23)NC(=O)CNC(=O)[C@H](CO)NC(=O)[C@H](C(C)C)NC(=O)[C@H](CC(N)=O)NC(=O)[C@H](Cc2c[nH]c3ccccc23)NC(=O)[C@H](Cc2ccc(O)cc2)NC1=O	HEK-293T	virus-like particle budding, inhibitor, GAG-mediated VLP budding	–	–	IC50	7 µM
C=CCN(CC=C)CCc1c[nH]c2ccccc12	Histamine H3 receptor (Cavia porcellus, UniProt Q9JI35)	binding	–	with: [3H]α-methylhistamine	Ki	> 10 µM
C/C1=C\[C@H](C)C[C@H](C)OC(=O)C[C@H](c2ccc(O)cc2)NC(=O)[C@@H](Cc2c(Br)[nH]c3ccccc23)N(C)C(=O)[C@H](CO)NC(=O)[C@@H](C)C1	MCF7	cytotoxicity	–	–	IC50	0.02 µM
C=CCN(CC=C)CCc1c[nH]c2ccc(Br)cc12	Sigma non-opioid intracellular receptor 1 (Sigmar1, Rattus norvegicus, UniProt Q9R0C9)	–	–	–	Ki	0.101 µM
C=CCc1ccc(O)c(-c2cc(O)ccc2O)c1	neutrophils	superoxide production	–	with: fMLF	IC50	1.6 µM
CN1C/C(=C\c2ccc(Cl)cc2Cl)C/C(=C/c2ccc(Cl)cc2Cl)C1	alpha7 nicotinic acetylcholine receptor	binding	–	with: [3H]methyllycaconitine	Ki	> 100 µM
CO[C@H]1C[C@H](O[C@H]2CC[C@@]3(C)[C@@H](C2)C[C@@H]2O[C@]24[C@@H]3[C@H](O)C(=O)[C@]2(C)[C@@H](C3=CC(=O)OC3)CC[C@]42O)O[C@@H](C)[C@@H]1O	HT-29	cell viability	–	72 h	IC50	0.22 ± 0.23 µM
C/C1=C\[C@H](C)C[C@H](C)OC(=O)C[C@H](c2ccc(O)cc2)NC(=O)[C@@H](Cc2c(Br)[nH]c3ccccc23)N(C)C(=O)[C@H](C)NC(=O)[C@@H](C)C1	MCF7	cytotoxicity	–	–	IC50	0.019 µM
Nc1ncnc2c1nc(Br)n2C1OC2COP(O)(=S)OC2C1O (centres unmarked)	PDE5	cyclic nucleotide hydrolysis, substrate or inhibitor, isothermal titration calorimetry	–	–	Km or Ki	94.7 µM
Aristolactam IIIa	human neutrophils	superoxide production	–	with: fMLF	IC50	0.43 µM
CCCC(C(=O)c1ccc2c(c1)OCO2)N1CCCC1 (centres unmarked)	norepinephrine transporter, rat	norepinephrine uptake, inhibitor	brain synaptosomes	–	IC50	0.026 ± 0.008 µM

Repeated from above:
Substance	tested on	assay	test system	setting	measurement	result
C=CCc1ccc(O)c(-c2cc(O)ccc2O)c1	neutrophils	superoxide production	–	with: fMLF	IC50	1.6 µM
CN1C/C(=C\c2ccc(Cl)cc2Cl)C/C(=C/c2ccc(Cl)cc2Cl)C1	alpha7 nicotinic acetylcholine receptor	binding	–	with: [3H]methyllycaconitine	Ki	> 100 µM
